Measured values of several laboratories.
Lines come from different studies, so protocols differ. ± marks the error that the study gave.

SMILES	assay	system	conditions	how to read	quantity	value
CCc1cc(O)ccc1-c1ccc2c(-c3nc4c([nH]3)CN(C(C)C)[C@H](C(=O)N3CC(N(C)C)C3)C4)n[nH]c2c1	–	human, plasma	inhalation, 10 mg, single dose, geometric mean	–	t1/2	24.4 h
[123I]c1cncc(OC[C@@H]2CCN2)c1	SPECT	human, low plasma nicotine, hippocampus	intravenous, dose not given	relative to: plasma	tissue/plasma ratio	28.8
CC(C)c1nc(N(C)S(C)(=O)=O)nc(-c2ccc(F)cc2)c1/C=C/[C@@H](O)C[C@@H](O)CC(=O)O	–	healthy volunteers, plasma	oral, dose not given, with: 2D regimen	–	AUC	30.7 ng·h/mL
O[C@H]1CCCN[C@@H]1CCCn1cnc2c(Cl)c(Cl)ccc21	–	healthy volunteers, urine	oral, 300 mg capsule single, geometric mean	–	renal clearance (0-72 h)	244 mL/min
CC(=O)N[C@H](CCCCNC(=O)C(C)F)C(=O)N[C@@H](CS)C(=O)N[C@@H](CS)C(=O)N[C@@H](CCC(=O)O)C(=O)N[C@@H](Cc1c[nH]cn1)C(=O)N[C@H](Cc1ccccc1)C(=O)N[C@@H](CCCNC(=N)N)C(=O)N[C@@H](Cc1c[nH]c2ccccc12)C(=O)N[C@@H](CS)C(=O)N[C@@H](CCCNC(=N)N)C(=O)N1CCC[C@H]1C(=O)N[C@H](C(N)=O)C(C)C (stereo partly drawn) [fluorine-18 labelled]	–	C57BL/6 mice, male, B16-F10 tumour, heart	intravenous, 2 h	–	tissue uptake	0.31 ± 0.06 %ID/g
COc1ccc(-c2cc(=O)c3c(OC)c(OC)c(OC)c(OC)c3o2)cc1OC	–	C57BL/6 mouse, male, small intestine	oral, 1% w/w in diet, 6 weeks, orange peel extract diet	relative to: content in orange peel	tissue to peel content ratio	2.65%
CC(=O)N[C@@H](CCCNC(=N)N)C(=O)N[C@H](C(=O)N[C@@H](CCCNC(=N)N)C(=O)N[C@@H](CCCNC(=N)N)C(=O)N[C@@H](CSSC(C)(C)C)C(=O)N[C@@H](CCCCNC(=O)c1ccc(F)cc1)C(=O)Nc1ccc2nc(C#N)sc2c1)C(C)C	–	mouse, blood	intravenous, 20 µmol/kg	–	Cmax	49.8 µM
CCCCCOc1ccc(-c2ccc(-c3ccc(C(=O)N[C@H]4C[C@@H](O)[C@@H](O)NC(=O)[C@@H]5[C@@H](O)[C@@H](C)CN5C(=O)[C@H]([C@@H](C)O)NC(=O)[C@H]([C@H](O)[C@@H](O)c5ccc(O)cc5)NC(=O)[C@@H]5C[C@@H](O)CN5C(=O)[C@H]([C@@H](C)O)NC4=O)cc3)cc2)cc1	–	infants, plasma	intravenous, 1.5 mg/kg/day after 3 mg/kg loading, 0 to 24 h	–	AUC at steady state, range	54800 to 278000 ng·h/mL
CCCCCCCCCC[N+](C)(C)C	substrate depletion	human liver microsomes	0.5 µM, 0 to 3 h, 37 °C, with: NADPH	–	intrinsic clearance	0.165 mL/h/mg protein
COc1ccc(C[C@@H]2NC(=O)[C@H]([C@@H](C)O)NC(=O)[C@@H]3[C@@H]4CCN3C(=O)[C@@H]3Cc5cn(c6ccc(F)cc56)CCCCCCN(Cc5ccc(cc5)CCNC(=O)[C@]5(C)CCCN5C2=O)C(=O)CCC(=O)N[C@@H](C)C(=O)N[C@H](CNC(=O)CCCCC[N+](C)(C)C)C(=O)N[C@@H](Cc2cccc(c2)CNC(=O)CO4)C(=O)N3)cc1	–	fasted healthy humans, plasma	oral, 200 mg single dose, with 1800 mg Labrasol, geometric mean	–	AUC(0-t)	1.17 µM·h
CN[C@@](C)(C[18F])C(=O)O	–	SCID mouse A549 xenograft, brain	120 min, post injection	–	tissue uptake	0.4 ± 0.1 %ID/g
CC(C)C[C@H](NC(=O)[C@H](C)NC(=O)[C@H](Cc1c[nH]cn1)NC(=O)[C@H](CO)NC(=O)[C@H](CCCCN)NC(=O)[C@H](Cc1ccccc1)NC(=O)CNC(=O)[C@@H](N)CC(N)=O)C(=O)N[C@@H](CCC(N)=O)C(=O)N[C@@H](CC(C)C)C(=O)N[C@@H](CC(N)=O)C(=O)N[C@@H](CC(N)=O)C(=O)N[C@@H](CCCNC(=N)N)C(=O)N[C@@H](CCC(N)=O)C(=O)O	LC-MS/MS	human serum	concentration not given, 4 h, room temperature, tube with gel separator	relative to: initial concentration	change in serum concentration	-54.5 ± 17%

Excerpt of the above:
SMILES	assay	system	conditions	how to read	quantity	value
CN[C@@](C)(C[18F])C(=O)O	–	SCID mouse A549 xenograft, brain	120 min, post injection	–	tissue uptake	0.4 ± 0.1 %ID/g
